# Results from different studies.
# Parts stem from different laboratories: compare values within a part only.

# Study 1
# Target: PABPC1L2, full length, GST fusion (mouse, UniProt A0ABA7IW68)
# Method: RNAcompete
# Form: RNA
# Medium: in vitro
# Tested at: 20 nM
# Setting: 7-mer, probes averaged, single round
# Baseline: mean of 7-mers
# Reading: higher = stronger binding
# Target sequence (chain): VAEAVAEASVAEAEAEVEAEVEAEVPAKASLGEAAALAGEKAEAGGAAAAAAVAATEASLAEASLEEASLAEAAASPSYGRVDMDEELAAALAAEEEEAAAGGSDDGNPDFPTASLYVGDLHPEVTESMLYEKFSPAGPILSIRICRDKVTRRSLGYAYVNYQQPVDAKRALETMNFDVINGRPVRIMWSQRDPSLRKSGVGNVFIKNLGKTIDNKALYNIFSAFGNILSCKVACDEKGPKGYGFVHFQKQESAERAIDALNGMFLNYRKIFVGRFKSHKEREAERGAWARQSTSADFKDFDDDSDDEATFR
Strand,7-mer Z-score
ACUGCCA,-0.164
UGAGAUG,-0.0718
GCAGAAC,0.108
UUAGAGC,0.0406
CAUUACA,-0.012
GGUAGUG,-0.135

# Study 2
# Target: Interferon regulatory factor 5, full length, phosphomimetic (IRF5, Homo sapiens, UniProt Q13568-2, residues 1-514, S451D/S453D/S456D/S462D)
# Method: protein-binding microarray
# Form: double-stranded DNA, one strand shown
# Medium: in vitro
# Tested at: 940 nM top
# Setting: 60-bp whole probe
# Added: salmon DNA 0.4 mg/ml
# Baseline: random background probes
# Reading: higher = stronger binding
# Constant ends, left off below: GCCTAGCAC … GTCTTGATTCGCTTGACGCTGCTG
Strand,fitted relative affinity [z-score]
ATTTGCTTCAGGTTTACCAGAGTGCTA,-0.345
TTAGGTCACGGTATCGGTTAGTGCTAG,3.56
GACGGTCTCCCTATCCTGACGTGCTAG,0.587
GCCGGTTTCGACTTTCGGGACGTGCTA,8.52
GAGGATATCAGTCTCGAGACGTGCTAG,0.908
GACGATCTCAGTATCGACACGTGCTAG,2.02
TCAGATGTGGGACTCACACTGTGCTAG,-0.573
TTAGATTTCGGTCTCGATTAGTGCTAG,4.63

# Study 3
# Target: Histone acetyltransferase KAT6A, winged helix 2, GST fusion (KAT6A, Homo sapiens, UniProt Q92794, residues 85-181)
# Method: protein binding microarray
# Form: double-stranded DNA, one strand shown
# Medium: in vitro
# Tested at: not given
# Setting: 8-mer, flanks averaged, mean of 2 arrays, mostly near background
# Baseline: not given
# Reading: higher = stronger binding
# Residues (chain): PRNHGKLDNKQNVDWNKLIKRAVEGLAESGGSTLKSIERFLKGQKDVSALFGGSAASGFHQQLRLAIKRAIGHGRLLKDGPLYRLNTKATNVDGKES
Strand,E-score
AGGCGTGC,0.0722
AAAATTGT,-0.00554
TGATGACA,-0.0893
AAGTACAA,-0.115
GGTAACAA,0.0371
AGTCTACG,-0.324
CTAGAGAG,0.0106
ACTGTAAC,0.00034
GTCTCCGA,0.157
AAAGCGTC,0.00217
AAATAACC,-0.049

# Other studies, line by line
Molecule,target,assay,system,conditions,how to read,measurement,value
"PhoQ, residues 284 288 289 292 302 303 WVSSAF","PhoP, residues 12 14 15 18 19 SMASL (Escherichia coli, UniProt P23836)","Sort-seq, refers to: YFP reporter",E. coli,"PhoQ-PhoP variant library, added: 10 µM Mg2+","baseline: high Mg2+ state, higher = stronger signaling",fold induction,7.92

# A few entries again (study 2):
Strand,fitted relative affinity [z-score]
GCCGGTTTCGACTTTCGGGACGTGCTA,8.52
GACGGTCTCCCTATCCTGACGTGCTAG,0.587
TTAGATTTCGGTCTCGATTAGTGCTAG,4.63
